Experimental data collected from several papers.
Each numbered part is a random draw from the data of one study; scales do not carry over between parts. “And” joins repeats or separate records; there may be more than shown.
Sequence of UniProt P08922 (whole entry, looked up): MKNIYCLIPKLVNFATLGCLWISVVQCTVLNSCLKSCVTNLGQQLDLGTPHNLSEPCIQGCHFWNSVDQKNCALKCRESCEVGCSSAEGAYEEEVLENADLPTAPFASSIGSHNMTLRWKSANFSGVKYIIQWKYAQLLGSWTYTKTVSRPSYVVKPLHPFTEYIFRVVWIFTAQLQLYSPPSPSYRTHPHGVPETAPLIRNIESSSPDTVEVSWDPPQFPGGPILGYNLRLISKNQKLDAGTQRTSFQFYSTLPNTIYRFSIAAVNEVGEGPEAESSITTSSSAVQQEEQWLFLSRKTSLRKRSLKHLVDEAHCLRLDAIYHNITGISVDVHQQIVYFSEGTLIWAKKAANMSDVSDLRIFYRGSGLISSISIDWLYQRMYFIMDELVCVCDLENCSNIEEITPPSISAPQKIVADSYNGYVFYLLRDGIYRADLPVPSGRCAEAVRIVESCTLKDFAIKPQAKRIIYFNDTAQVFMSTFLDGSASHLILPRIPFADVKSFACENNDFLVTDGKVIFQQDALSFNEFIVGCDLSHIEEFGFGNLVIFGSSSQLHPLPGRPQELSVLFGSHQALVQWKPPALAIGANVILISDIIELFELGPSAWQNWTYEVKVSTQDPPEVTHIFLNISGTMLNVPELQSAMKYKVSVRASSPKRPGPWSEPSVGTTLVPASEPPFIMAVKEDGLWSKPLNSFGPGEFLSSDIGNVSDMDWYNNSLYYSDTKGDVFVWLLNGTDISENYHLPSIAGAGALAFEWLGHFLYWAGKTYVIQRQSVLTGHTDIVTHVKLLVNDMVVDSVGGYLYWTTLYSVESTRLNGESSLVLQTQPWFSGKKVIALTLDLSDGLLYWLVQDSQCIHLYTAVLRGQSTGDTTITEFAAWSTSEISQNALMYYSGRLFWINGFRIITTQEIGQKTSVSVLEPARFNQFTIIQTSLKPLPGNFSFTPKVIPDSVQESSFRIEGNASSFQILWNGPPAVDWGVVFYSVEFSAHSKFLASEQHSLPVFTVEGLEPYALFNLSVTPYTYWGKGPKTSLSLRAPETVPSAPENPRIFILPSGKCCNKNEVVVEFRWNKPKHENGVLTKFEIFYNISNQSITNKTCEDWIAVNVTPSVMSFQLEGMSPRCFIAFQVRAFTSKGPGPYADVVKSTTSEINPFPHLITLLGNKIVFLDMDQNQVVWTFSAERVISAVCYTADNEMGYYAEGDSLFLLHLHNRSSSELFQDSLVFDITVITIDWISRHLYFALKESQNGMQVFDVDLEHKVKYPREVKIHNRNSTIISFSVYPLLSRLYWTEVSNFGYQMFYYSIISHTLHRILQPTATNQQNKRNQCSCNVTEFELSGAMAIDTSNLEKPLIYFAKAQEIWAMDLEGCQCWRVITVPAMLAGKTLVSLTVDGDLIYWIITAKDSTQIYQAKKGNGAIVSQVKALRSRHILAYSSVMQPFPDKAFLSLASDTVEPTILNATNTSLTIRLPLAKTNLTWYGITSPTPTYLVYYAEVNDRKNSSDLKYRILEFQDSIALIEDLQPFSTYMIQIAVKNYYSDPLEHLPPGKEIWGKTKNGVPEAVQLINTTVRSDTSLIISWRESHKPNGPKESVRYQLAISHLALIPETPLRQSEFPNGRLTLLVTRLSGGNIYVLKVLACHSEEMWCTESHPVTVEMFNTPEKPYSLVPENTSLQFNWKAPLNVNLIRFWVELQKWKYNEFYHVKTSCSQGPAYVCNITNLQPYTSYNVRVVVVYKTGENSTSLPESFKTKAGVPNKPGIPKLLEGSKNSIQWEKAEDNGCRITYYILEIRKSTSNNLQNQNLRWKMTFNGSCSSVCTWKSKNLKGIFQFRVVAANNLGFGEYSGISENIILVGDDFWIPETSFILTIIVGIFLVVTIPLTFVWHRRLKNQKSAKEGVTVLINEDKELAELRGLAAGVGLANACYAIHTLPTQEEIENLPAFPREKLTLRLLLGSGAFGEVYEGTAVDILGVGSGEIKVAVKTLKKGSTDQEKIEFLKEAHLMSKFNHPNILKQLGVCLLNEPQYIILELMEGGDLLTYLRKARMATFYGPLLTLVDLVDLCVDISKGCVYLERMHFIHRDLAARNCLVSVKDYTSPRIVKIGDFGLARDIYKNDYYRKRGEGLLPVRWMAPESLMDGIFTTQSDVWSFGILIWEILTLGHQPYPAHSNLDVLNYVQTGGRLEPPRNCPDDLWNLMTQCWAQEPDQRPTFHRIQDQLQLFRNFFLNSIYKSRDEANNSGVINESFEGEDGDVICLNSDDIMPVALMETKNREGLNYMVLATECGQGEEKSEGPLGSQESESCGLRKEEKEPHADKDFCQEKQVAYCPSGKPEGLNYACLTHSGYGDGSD
Sequence of UniProt P19784 (whole entry, looked up): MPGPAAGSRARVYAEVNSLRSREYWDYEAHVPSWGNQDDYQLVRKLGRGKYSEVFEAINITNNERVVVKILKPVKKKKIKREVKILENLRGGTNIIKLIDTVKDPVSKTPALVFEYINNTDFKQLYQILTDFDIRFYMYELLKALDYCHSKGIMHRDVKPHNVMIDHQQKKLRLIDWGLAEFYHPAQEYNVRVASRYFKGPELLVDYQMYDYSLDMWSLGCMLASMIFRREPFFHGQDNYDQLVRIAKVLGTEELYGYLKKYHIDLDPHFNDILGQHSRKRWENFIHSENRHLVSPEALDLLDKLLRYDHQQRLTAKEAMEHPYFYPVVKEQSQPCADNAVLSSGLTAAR
Sequence of UniProt P42680 (whole entry, looked up): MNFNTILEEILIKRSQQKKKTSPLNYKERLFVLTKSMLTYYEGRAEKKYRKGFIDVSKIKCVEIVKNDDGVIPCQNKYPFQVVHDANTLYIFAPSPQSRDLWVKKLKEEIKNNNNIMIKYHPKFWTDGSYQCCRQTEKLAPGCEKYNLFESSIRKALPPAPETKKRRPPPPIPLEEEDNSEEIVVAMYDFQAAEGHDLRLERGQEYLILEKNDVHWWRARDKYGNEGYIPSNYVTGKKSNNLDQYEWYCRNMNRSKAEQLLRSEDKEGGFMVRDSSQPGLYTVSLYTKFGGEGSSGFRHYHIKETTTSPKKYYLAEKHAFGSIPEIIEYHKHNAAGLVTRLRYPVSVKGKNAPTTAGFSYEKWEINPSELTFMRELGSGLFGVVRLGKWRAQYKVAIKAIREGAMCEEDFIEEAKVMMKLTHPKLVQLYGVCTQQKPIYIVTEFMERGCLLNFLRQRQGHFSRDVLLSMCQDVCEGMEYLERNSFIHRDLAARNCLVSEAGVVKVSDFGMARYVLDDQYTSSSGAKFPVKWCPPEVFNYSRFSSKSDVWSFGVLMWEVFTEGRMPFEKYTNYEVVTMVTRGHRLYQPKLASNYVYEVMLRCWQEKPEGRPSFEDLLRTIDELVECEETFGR
Sequence of UniProt P54764 (whole entry, looked up): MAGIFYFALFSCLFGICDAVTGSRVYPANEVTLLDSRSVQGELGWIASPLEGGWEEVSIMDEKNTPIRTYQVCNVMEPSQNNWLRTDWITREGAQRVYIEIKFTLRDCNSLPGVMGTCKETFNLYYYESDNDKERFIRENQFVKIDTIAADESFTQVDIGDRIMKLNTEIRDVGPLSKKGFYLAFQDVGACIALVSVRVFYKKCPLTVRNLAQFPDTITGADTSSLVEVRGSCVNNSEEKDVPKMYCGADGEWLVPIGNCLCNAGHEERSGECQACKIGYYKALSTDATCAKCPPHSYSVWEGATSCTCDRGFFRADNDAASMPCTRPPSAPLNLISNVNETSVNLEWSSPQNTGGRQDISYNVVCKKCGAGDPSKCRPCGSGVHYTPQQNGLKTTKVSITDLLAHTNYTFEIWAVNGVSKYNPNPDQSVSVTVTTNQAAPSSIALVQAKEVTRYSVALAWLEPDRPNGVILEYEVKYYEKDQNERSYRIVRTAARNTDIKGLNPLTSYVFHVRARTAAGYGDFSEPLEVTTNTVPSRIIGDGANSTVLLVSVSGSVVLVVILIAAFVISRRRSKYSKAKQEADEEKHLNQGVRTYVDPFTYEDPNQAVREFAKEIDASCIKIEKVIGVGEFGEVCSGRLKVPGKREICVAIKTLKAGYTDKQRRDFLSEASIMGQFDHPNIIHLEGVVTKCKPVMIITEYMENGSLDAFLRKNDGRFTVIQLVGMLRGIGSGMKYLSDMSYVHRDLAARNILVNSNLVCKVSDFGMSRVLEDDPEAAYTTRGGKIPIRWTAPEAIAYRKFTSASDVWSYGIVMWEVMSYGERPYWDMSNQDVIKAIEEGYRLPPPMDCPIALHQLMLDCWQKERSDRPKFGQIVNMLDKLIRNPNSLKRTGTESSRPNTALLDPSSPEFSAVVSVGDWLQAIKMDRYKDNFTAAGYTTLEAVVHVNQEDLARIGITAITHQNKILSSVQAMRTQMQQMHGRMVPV
Sequence of UniProt P48730 (whole entry, looked up): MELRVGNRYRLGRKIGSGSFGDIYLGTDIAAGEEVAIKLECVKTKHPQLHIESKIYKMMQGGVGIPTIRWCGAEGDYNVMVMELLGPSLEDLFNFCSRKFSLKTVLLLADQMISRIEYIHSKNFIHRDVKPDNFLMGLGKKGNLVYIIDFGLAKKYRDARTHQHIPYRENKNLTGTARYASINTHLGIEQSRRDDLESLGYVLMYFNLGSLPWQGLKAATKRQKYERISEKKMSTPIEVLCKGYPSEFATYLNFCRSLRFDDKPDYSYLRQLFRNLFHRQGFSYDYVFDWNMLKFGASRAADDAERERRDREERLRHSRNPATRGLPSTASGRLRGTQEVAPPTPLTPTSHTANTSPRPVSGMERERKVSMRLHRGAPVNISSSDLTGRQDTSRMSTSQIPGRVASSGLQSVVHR
Sequence of UniProt Q00532 (whole entry, looked up): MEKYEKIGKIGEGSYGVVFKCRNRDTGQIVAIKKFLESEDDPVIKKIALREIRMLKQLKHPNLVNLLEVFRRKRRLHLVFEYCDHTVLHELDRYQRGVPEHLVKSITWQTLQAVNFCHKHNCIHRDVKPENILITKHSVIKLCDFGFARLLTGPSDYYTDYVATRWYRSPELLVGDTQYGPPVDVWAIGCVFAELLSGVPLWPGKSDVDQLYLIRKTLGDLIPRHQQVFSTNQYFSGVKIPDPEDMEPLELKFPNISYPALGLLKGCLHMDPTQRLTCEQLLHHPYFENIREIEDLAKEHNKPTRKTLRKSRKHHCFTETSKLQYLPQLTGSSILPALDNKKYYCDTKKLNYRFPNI

Sample 1 — concentration: 0.5 µM
SMILES: CN[C@@H]1C[C@H]2O[C@@](C)([C@@H]1OC)n1c3ccccc3c3c4c(c5c6ccccc6n2c5c31)C(=O)NC4
For Activated CDC42 kinase 1 (TNK2, Homo sapiens, UniProt Q07912); kinase activity; together with: ATP 10 µM; baseline: untreated: remaining activity read 2.17%.
For Dual specificity tyrosine-phosphorylation-regulated kinase 4 (DYRK4, Homo sapiens, UniProt Q9NR20); enzyme activity, inhibitor; baseline: control: remaining activity read 96.4%.
For Casein kinase II subunit alpha' (CSNK2A2, Homo sapiens, UniProt P19784); enzyme activity, inhibitor; baseline: control: remaining activity read 87.8%.
It gave 0.859% and 6.53% for remaining activity (Proto-oncogene tyrosine-protein kinase ROS (ROS1, Homo sapiens, UniProt P08922); enzyme activity, inhibitor; baseline: control).
It gave 2.44% for remaining activity (Aurora kinase A (AURKA, Homo sapiens, UniProt O14965); enzyme activity, inhibitor; baseline: control).

Sample 2 — cell line: HEK-293T; read-out: pseudovirus infection; technique: FDA-approved drug library counter-screen; organism: VSV pseudotyped with VSV-G; concentration: 10 µM; time: 16 h; baseline: vehicle-treated
For `N#C/C(=C1/SC[C@@H](c2ccc(Cl)cc2Cl)S1)n1ccnc1`, the GFP-positive cells was 116%.
The GFP-positive cells of `O=c1[nH]c(=O)n([C@H]2C[C@H](O)[C@@H](CO)O2)cc1I` is reported as 95.1%.
`COc1cccc2c1C(=O)c1c(O)c3c(c(O)c1C2=O)C[C@@](O)(C(C)=O)C[C@@H]3O[C@H]1C[C@H](N)[C@H](O)[C@H](C)O1` has a GFP-positive cells of 147%.
`Cc1nnc(NS(=O)(=O)c2ccc(N)cc2)s1` has a GFP-positive cells of 96.5%.
`Cc1ccc(Cl)c(Nc2ccccc2C(=O)O)c1Cl` has a GFP-positive cells of 74.3%.
With `NC(=O)CC[C@H](N)C(=O)O` the GFP-positive cells was 142%.
The GFP-positive cells of `C[C@]12CC[C@H]3[C@@H](CC[C@@]45O[C@@H]4C(O)=C(C#N)C[C@]35C)[C@@H]1CC[C@@H]2O` is reported as 93.8%.
The GFP-positive cells of `O=C(O)CCCc1ccccc1` is reported as 88.7%.
With `CN1CCC(=C2c3ccccc3CCn3c(C=O)cnc32)CC1` the GFP-positive cells was 107%.
With `CCC1=C(C)CN(C(=O)NCCc2ccc(S(=O)(=O)NC(=O)N[C@H]3CC[C@H](C)CC3)cc2)C1=O` the GFP-positive cells was 105%.
`Clc1ccc(CCC(Cn2ccnc2)Sc2c(Cl)cccc2Cl)cc1` (centres unmarked) gave a GFP-positive cells of 105%.

Sample 3 — species: mouse C57BL/6J male; baseline: vehicle
SMILES: CN1CC[C@]23c4c5ccc(O)c4O[C@H]2[C@@H](O)C=C[C@H]3[C@H]1C5
It gave 66% for respiration rate (10 mg/kg, 20 min).
For 30 mg/kg, 0 min: respiration rate read 100%.
It gave 44% for respiration rate (30 mg/kg, 60 min).
10 mg/kg, 80 min — respiration rate: 125%.
The respiration rate was 39% (30 mg/kg, 40 min).
10 mg/kg, 0 min — respiration rate: 100%.

Sample 4 — technique: competition with immobilised ligand; concentration: 1 µM
Structure (SMILES): N#CC1(c2ccccn2)CCN(Cc2cc(C(=O)O)c(=O)n3ccccc23)CC1
For Casein kinase I isoform delta (CSNK1D, Homo sapiens, UniProt P48730); cell-free assay: remaining binding read 96%.
The remaining binding was 96% (Hepatocyte growth factor receptor (MET, Homo sapiens, UniProt P08581, M1250T); cell-free assay).
Receptor-type tyrosine-protein kinase FLT3 (FLT3, Homo sapiens, UniProt P36888, R834Q); cell-free assay — remaining binding: 100%.
Homeodomain-interacting protein kinase 1 (HIPK1, Homo sapiens, UniProt Q86Z02); cell-free assay — remaining binding: 100%.
Tyrosine-protein kinase Tec (TEC, Homo sapiens, UniProt P42680); binding — remaining binding: 100%.
For Cyclin-dependent kinase 17 (CDK17, Homo sapiens, UniProt Q00537); cell-free assay: remaining binding read 96%.
It gave 86% for remaining binding (Casein kinase II subunit alpha' (CSNK2A2, Homo sapiens, UniProt P19784); cell-free assay).
The remaining binding was 100% (Cyclin-dependent kinase-like 1 (CDKL1, Homo sapiens, UniProt Q00532); cell-free assay).
Serine/threonine-protein kinase PAK 3 (PAK3, Homo sapiens, UniProt O75914); cell-free assay — remaining binding: 100%.
The remaining binding was 100% (Glycogen synthase kinase-3 alpha (GSK3A, Homo sapiens, UniProt P49840); cell-free assay).
For Ephrin type-A receptor 4 (EPHA4, Homo sapiens, UniProt P54764); cell-free assay: remaining binding read 79%.
The remaining binding was 80% (Receptor-type tyrosine-protein kinase FLT3, autoinhibited (FLT3, Homo sapiens, UniProt P36888); cell-free assay).
Calcium-dependent protein kinase 1 (CDPK1, Plasmodium falciparum, UniProt P62344); cell-free assay — remaining binding: 88%.

A few entries again (sample 2):
The GFP-positive cells of `O=c1[nH]c(=O)n([C@H]2C[C@H](O)[C@@H](CO)O2)cc1I` is reported as 95.1%.
With `CCC1=C(C)CN(C(=O)NCCc2ccc(S(=O)(=O)NC(=O)N[C@H]3CC[C@H](C)CC3)cc2)C1=O` the GFP-positive cells was 105%.
The GFP-positive cells of `O=C(O)CCCc1ccccc1` is reported as 88.7%.
`Clc1ccc(CCC(Cn2ccnc2)Sc2c(Cl)cccc2Cl)cc1` (centres unmarked) gave a GFP-positive cells of 105%.
For `N#C/C(=C1/SC[C@@H](c2ccc(Cl)cc2Cl)S1)n1ccnc1`, the GFP-positive cells was 116%.
